{"data": "Measured values pooled from the literature", "note": "Every numbered part comes from another study and shows a few of its results, in no order.", "chain of UniProt P41743 (whole entry, looked up)": "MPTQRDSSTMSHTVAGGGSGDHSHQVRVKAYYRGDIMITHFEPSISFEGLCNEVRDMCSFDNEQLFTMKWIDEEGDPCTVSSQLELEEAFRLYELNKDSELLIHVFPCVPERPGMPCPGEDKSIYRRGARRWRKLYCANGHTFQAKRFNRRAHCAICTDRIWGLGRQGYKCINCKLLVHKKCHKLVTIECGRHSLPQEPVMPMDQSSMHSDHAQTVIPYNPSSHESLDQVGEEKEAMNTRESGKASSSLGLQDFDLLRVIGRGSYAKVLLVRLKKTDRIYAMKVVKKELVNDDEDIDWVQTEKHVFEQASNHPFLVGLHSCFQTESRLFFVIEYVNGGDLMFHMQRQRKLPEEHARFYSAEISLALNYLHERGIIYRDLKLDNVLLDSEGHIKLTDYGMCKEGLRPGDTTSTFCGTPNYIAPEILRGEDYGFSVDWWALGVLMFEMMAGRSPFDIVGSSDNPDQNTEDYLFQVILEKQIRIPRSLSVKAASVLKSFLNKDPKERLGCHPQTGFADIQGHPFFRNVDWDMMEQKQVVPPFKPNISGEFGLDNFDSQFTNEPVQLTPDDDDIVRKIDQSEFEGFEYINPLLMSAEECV", "chain of UniProt P07948 (whole entry, looked up)": "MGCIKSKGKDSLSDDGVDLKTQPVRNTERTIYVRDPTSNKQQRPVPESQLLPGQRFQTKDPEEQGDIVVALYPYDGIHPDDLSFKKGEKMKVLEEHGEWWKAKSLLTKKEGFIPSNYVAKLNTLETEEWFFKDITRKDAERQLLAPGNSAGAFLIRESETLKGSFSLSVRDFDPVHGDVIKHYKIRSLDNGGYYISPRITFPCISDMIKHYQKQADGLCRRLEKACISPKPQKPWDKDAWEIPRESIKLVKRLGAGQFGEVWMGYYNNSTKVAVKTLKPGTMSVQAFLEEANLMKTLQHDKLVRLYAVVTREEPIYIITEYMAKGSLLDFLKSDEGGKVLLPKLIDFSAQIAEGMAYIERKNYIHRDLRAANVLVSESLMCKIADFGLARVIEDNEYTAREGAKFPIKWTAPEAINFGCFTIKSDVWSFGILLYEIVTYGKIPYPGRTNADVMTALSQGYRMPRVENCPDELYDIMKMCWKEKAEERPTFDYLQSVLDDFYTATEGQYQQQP", "chain of UniProt Q9HBH9 (whole entry, looked up)": "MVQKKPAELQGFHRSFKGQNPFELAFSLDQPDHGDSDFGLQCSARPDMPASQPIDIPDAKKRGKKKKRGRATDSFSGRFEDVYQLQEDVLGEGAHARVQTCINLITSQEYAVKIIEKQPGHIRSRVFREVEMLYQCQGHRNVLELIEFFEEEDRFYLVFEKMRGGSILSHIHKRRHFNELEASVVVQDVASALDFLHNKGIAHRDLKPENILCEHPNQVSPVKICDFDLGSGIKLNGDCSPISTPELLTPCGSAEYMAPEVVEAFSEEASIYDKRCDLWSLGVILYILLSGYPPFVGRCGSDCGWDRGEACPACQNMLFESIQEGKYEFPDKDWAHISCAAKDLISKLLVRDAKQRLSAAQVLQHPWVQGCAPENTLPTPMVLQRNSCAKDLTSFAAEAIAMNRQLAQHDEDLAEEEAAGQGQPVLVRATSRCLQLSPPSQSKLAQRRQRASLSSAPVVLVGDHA", "chain of UniProt Q06187 (whole entry, looked up)": "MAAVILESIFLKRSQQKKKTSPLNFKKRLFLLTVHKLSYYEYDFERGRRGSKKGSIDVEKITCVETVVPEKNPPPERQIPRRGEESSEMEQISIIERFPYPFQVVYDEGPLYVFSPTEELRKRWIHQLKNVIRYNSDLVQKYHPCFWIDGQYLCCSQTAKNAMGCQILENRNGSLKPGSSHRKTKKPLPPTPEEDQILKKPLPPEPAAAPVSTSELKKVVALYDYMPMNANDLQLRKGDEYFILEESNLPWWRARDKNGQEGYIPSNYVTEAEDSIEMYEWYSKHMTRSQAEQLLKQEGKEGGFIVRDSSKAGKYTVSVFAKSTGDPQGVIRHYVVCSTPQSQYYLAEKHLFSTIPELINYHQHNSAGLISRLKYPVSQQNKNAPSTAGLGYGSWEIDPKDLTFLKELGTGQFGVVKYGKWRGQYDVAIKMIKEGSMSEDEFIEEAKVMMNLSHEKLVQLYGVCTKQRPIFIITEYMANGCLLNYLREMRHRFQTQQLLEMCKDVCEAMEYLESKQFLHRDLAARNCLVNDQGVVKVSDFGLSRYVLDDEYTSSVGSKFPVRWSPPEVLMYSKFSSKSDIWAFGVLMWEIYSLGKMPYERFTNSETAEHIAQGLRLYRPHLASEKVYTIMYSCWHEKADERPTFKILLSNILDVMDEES", "chain of UniProt Q15208 (whole entry, looked up)": "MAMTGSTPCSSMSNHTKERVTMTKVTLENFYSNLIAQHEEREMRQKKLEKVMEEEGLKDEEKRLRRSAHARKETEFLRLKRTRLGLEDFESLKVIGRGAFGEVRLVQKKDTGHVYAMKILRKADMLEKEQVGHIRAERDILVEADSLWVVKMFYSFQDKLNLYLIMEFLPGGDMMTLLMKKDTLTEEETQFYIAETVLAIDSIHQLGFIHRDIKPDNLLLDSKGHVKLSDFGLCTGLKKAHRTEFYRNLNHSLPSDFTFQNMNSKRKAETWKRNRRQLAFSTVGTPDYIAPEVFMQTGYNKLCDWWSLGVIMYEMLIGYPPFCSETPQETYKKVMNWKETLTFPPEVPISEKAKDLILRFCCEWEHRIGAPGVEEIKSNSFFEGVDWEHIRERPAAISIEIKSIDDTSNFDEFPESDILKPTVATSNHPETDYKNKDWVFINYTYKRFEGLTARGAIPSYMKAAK", "chain of UniProt O75747 (whole entry, looked up)": "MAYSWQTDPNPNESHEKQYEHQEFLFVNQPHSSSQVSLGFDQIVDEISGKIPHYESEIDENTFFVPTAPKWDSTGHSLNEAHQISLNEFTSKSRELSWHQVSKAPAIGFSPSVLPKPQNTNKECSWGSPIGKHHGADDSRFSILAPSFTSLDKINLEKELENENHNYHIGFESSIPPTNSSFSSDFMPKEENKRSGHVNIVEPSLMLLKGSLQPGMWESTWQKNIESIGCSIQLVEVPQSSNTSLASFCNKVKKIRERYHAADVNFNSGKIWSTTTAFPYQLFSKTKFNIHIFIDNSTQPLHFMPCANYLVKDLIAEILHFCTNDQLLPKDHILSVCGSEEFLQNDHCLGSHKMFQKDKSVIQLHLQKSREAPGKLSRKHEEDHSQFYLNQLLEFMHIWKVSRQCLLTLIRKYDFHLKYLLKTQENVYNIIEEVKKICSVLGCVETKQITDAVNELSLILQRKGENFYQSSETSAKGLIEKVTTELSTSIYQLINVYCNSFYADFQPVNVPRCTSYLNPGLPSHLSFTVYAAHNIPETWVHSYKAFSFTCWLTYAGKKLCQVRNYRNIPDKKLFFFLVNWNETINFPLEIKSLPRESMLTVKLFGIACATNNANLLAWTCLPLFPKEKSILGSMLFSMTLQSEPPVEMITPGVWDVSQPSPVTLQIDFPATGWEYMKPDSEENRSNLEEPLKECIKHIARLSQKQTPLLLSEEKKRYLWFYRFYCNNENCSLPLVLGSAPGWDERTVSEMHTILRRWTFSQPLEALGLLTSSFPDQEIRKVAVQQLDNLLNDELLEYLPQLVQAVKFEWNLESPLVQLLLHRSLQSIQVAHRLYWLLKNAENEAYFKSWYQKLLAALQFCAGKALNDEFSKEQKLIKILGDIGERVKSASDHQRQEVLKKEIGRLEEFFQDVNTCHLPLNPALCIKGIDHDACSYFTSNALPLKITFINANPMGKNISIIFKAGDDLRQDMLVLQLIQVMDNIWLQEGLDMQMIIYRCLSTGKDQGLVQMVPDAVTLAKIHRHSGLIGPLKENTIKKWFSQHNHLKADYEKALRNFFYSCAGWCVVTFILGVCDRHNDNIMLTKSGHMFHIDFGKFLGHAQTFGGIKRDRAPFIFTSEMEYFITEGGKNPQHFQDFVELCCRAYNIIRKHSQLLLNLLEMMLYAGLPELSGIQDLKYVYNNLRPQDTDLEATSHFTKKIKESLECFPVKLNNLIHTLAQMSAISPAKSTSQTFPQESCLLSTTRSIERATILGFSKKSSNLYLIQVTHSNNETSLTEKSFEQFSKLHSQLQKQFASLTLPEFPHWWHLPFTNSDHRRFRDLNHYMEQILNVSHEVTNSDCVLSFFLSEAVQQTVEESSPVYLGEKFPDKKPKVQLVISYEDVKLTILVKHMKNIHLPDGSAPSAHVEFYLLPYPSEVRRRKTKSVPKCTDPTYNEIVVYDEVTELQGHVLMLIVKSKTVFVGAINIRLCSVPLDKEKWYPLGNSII", "chain of UniProt Q15569 (whole entry, looked up)": "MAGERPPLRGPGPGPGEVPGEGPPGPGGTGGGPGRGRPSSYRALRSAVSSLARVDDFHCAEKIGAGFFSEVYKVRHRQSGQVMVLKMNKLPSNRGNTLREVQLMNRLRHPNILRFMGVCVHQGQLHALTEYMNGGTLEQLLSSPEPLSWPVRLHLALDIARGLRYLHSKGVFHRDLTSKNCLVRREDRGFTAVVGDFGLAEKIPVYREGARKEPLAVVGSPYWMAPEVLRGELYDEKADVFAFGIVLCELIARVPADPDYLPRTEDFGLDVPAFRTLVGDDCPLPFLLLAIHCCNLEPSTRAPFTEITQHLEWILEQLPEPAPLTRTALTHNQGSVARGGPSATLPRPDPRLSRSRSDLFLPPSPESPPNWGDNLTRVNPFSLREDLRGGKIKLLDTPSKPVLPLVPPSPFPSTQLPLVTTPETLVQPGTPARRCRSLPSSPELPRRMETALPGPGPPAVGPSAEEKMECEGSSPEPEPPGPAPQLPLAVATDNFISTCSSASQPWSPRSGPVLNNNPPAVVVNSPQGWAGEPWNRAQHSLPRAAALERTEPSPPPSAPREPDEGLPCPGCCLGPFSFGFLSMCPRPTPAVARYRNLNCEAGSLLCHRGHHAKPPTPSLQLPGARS"}
{"data": "Set 1", "SMILES": "CCC(=N\\O)/C(C)=C/c1ccc(F)cc1", "observed": "cell-free assay", "technique": "competition with immobilised ligand", "tested at": "1 µM"}
{"target": "SLK (Homo sapiens, UniProt Q9H2G2)", "remaining binding": "91%"}
{"target": "FGFR3 (Homo sapiens, UniProt P22607)", "remaining binding": "91%"}
{"target": "CAMK1D (Homo sapiens, UniProt Q8IU85)", "remaining binding": "100%"}
{"target": "Tyrosine-protein kinase ABL1, phosphorylated (ABL1, Homo sapiens, UniProt P00519, E255K)", "remaining binding": "52%"}
{"target": "PLK4 (Homo sapiens, UniProt O00444)", "remaining binding": "75%"}
{"target": "CDKL2 (Homo sapiens, UniProt Q92772)", "remaining binding": "92%"}
{"target": "PRKCI (Homo sapiens, UniProt P41743)", "remaining binding": "74%"}
{"target": "WNK1 (Homo sapiens, UniProt Q9H4A3)", "remaining binding": "83%"}
{"target": "PRKAA1 (Homo sapiens, UniProt Q13131)", "remaining binding": "99%"}
{"target": "Tyrosine-protein kinase ABL1, phosphorylated (ABL1, Homo sapiens, UniProt P00519, H396P)", "remaining binding": "72%"}
{"target": "PIK3CA (Homo sapiens, UniProt P42336, I800L)", "remaining binding": "100%"}
{"target": "PIP5K1C (Homo sapiens, UniProt O60331)", "remaining binding": "100%"}
{"target": "MAP3K20 (Homo sapiens, UniProt Q9NYL2)", "remaining binding": "84%"}
{"target": "TGFBR1 (Homo sapiens, UniProt P36897)", "remaining binding": "85%"}
{"target": "CAMK2G (Homo sapiens, UniProt Q13555)", "remaining binding": "100%"}
{"target": "ALK (Homo sapiens, UniProt Q9UM73, L1196M)", "remaining binding": "71%"}
{"target": "MAPK1 (Homo sapiens, UniProt P28482)", "remaining binding": "71%"}
{"target": "FRK (Homo sapiens, UniProt P42685)", "remaining binding": "100%"}
{"target": "PIK3C2G (Homo sapiens, UniProt O75747)", "remaining binding": "75%"}
{"target": "MARK1 (Homo sapiens, UniProt Q9P0L2)", "remaining binding": "100%"}
{"target": "EPHA4 (Homo sapiens, UniProt P54764)", "remaining binding": "74%"}
{"target": "TESK1 (Homo sapiens, UniProt Q15569)", "remaining binding": "82%"}
{"target": "MAPK8 (Homo sapiens, UniProt P45983)", "remaining binding": "86%"}
{"data": "Set 2", "Compound": "COc1cc(C(=O)N2CCC(N3CCN(C)CC3)CC2)ccc1Nc1ncc2c(n1)N(C)c1ccccc1C(=O)N2C"}
{"target or system": "mouse CaMK1δ", "test": "probe labelling, KiNativ ATP probe", "system": "mouse brain lysate", "conditions": "0.1 µM, LYS1 site LFAVkCIPK", "inhibition [%]": -2.7}
{"target or system": "mouse CaMK2γ", "test": "probe labelling, KiNativ ADP probe", "system": "mouse brain lysate", "conditions": "0.1 µM, LYS1 site TSTQEYAAkIINTK", "inhibition [%]": 15.3}
{"target or system": "human PBMC", "test": "probe labeling, inhibitor, KiNativ profiling, item: YVAVkIHQLNK", "system": "cell lysate", "conditions": "concentration not given, LYS1 site, with: ATP acyl-phosphate probe 0.1 µM", "inhibition [%]": 7.2}
{"target or system": "mouse PKACα", "test": "probe labelling, KiNativ ADP probe", "system": "mouse brain lysate", "conditions": "1 µM, LYS1 site", "inhibition [%]": 5.1}
{"target or system": "SLK (mouse)", "test": "probe labelling, inhibitor, KiNativ ActivX ADP probe", "system": "mouse brain lysate", "conditions": "1 µM, Lys1 site peptide", "inhibition [%]": 4.6}
{"target or system": "Receptor tyrosine-protein kinase erbB-4 (Erbb4, Mus musculus, UniProt Q61527)", "test": "KiNativ profiling", "system": "mouse brain lysate", "conditions": "0.1 µM, LYS1 site, with: ATP acyl phosphate probe", "inhibition [%]": -14}
{"target or system": "PHKg2 (mouse)", "test": "probe labelling, KiNativ, item: Lys1 site peptide", "system": "brain tissue lysate (mouse)", "conditions": "0.1 µM, with: ATP acyl-phosphate probe", "inhibition [%]": 13.4}
{"target or system": "MARK2 (human)", "test": "probe labelling, KiNativ ADP probe", "system": "human PBMC lysate", "conditions": "concentration not given, LYS1 labelled site", "inhibition [%]": -1.3}
{"target or system": "MAP3K1 (human)", "test": "probe labelling, KiNativ ATP probe", "system": "human PBMC lysate", "conditions": "concentration not given, LYS2 labelled site", "inhibition [%]": 14.5}
{"target or system": "PIP5K3 human", "test": "KiNativ profiling", "system": "human PBMC", "conditions": "0.1 µM, ATP site, with: ADP acyl phosphate probe", "inhibition [%]": -10.7}
{"target or system": "PCTAIRE1 (mouse)", "test": "probe labelling, KiNativ ATP probe", "system": "mouse brain lysate", "conditions": "0.1 µM, LYS1 labelled site", "inhibition [%]": 8.3}
{"data": "Set 3", "Compound": "CC(C)n1cnc(-c2ccc(F)cc2)c1-c1ncc(C(=O)Nc2ccc(N3CCN(C)CC3)cc2)[nH]1"}
{"technique": "phase 2a trial", "species": "idiopathic pulmonary fibrosis patients", "route": "oral", "dose": "60 mg once daily", "setting": "musculoskeletal disorders, grade 1", "patients with TEAE [%]": 0}
{"technique": "phase 2a trial", "species": "idiopathic pulmonary fibrosis patients", "route": "oral", "dose": "60 mg once daily", "setting": "urine red cells, grade 5", "patients with TEAE [%]": 0}
{"technique": "phase 2a trial", "species": "patients with idiopathic pulmonary fibrosis", "dose": "60 mg once daily", "setting": "free thyroxine decreased, grade 5", "patients with TEAE [%]": 0}
{"technique": "phase 2a trial", "species": "patients with idiopathic pulmonary fibrosis", "dose": "dose not given", "setting": "endocrine disorders SOC, grade 5, all arms", "patients with TEAE [%]": 0}
{"technique": "phase 2a trial", "species": "idiopathic pulmonary fibrosis patients", "route": "oral", "dose": "dose not given", "setting": "LDL increased, grade 4, all arms", "patients with TEAE [%]": 0}
{"technique": "phase 2a trial", "species": "patients with idiopathic pulmonary fibrosis", "dose": "60 mg once daily", "setting": "eye swelling, grade 3", "patients with TEAE [%]": 0}
{"technique": "phase 2a trial", "species": "patients with idiopathic pulmonary fibrosis", "dose": "30 mg once daily", "setting": "free thyroxine decreased, grade 4", "patients with TEAE [%]": 0}
{"technique": "phase 2a trial", "species": "patients with idiopathic pulmonary fibrosis", "dose": "30 mg once daily", "setting": "nervous system disorders SOC, grade 2", "patients with TEAE [%]": 0}
{"item": "prostatic calcification", "species": "idiopathic pulmonary fibrosis patients", "dose": "60 mg once daily", "patients with TEAE [%]": 0}
{"technique": "phase 2a trial", "species": "idiopathic pulmonary fibrosis patients", "route": "oral", "dose": "60 mg once daily", "setting": "GLDH increased, grade 4", "patients with TEAE [%]": 0}
{"item": "periorbital oedema", "species": "idiopathic pulmonary fibrosis patients", "dose": "30 mg once daily", "patients with TEAE [%]": 0}
{"technique": "phase 2a trial", "species": "idiopathic pulmonary fibrosis patients", "route": "oral", "dose": "60 mg once daily", "setting": "blood/lymphatic disorders, grade 5", "patients with TEAE [%]": 0}
{"data": "Set 4", "SMILES": "CCc1[nH]c(-c2ccc(OC)cc2)nc1-c1ccncc1", "observed": "enzyme activity", "action": "inhibitor", "tested at": "0.5 µM", "reference": "control"}
{"target": "MAP3K10 (Homo sapiens, UniProt Q02779)", "remaining activity [%]": 102}
{"target": "MAP2K6 (Homo sapiens, UniProt P52564)", "remaining activity [%]": 110}
{"target": "LYN (Homo sapiens, UniProt P07948)", "remaining activity [%]": 103}
{"target": "MAP4K2 (Homo sapiens, UniProt Q12851)", "remaining activity [%]": 106}
{"target": "AKT3 (Homo sapiens, UniProt Q9Y243)", "remaining activity [%]": 101}
{"target": "PLK2 (Homo sapiens, UniProt Q9NYY3)", "remaining activity [%]": 101}
{"target": "PRKG1 (Homo sapiens, UniProt Q13976)", "remaining activity [%]": 81}
{"target": "CHEK1 (Homo sapiens, UniProt O14757)", "remaining activity [%]": 98.6}
{"target": "STK38 (Homo sapiens, UniProt Q15208)", "remaining activity [%]": 102}
{"target": "EPHA5 (Homo sapiens, UniProt P54756)", "remaining activity [%]": 100}
{"target": "PRKCI (Homo sapiens, UniProt P41743)", "remaining activity [%]": 101}
{"target": "IRAK4 (Homo sapiens, UniProt Q9NWZ3)", "remaining activity [%]": 111}
{"target": "CSNK1A1 (Homo sapiens, UniProt P48729)", "remaining activity [%]": 99.4}
{"target": "KIT (Homo sapiens, UniProt P10721)", "remaining activity [%]": 92.7}
{"target": "LRRK2 (Homo sapiens, UniProt Q5S007)", "remaining activity [%]": 96.7}
{"target": "CSNK2A1 (Homo sapiens, UniProt P68400)", "remaining activity [%]": 95.3}
{"target": "NEK4 (Homo sapiens, UniProt P51957)", "remaining activity [%]": 95.2}
{"target": "Cyclin-dependent kinase 9, with cyclin T1 (CDK9, Homo sapiens, UniProt P50750)", "remaining activity [%]": 88.5}
{"target": "MKNK2 (Homo sapiens, UniProt Q9HBH9)", "remaining activity [%]": 88.2}
{"target": "BTK (Homo sapiens, UniProt Q06187)", "remaining activity [%]": 106}
{"target": "PRKCD (Homo sapiens, UniProt Q05655)", "remaining activity [%]": 98.5}
{"note": "For quick reference, copied from above (set 3):"}
{"technique": "phase 2a trial", "species": "patients with idiopathic pulmonary fibrosis", "dose": "dose not given", "setting": "endocrine disorders SOC, grade 5, all arms", "patients with TEAE [%]": 0}
{"technique": "phase 2a trial", "species": "idiopathic pulmonary fibrosis patients", "route": "oral", "dose": "dose not given", "setting": "LDL increased, grade 4, all arms", "patients with TEAE [%]": 0}
{"technique": "phase 2a trial", "species": "patients with idiopathic pulmonary fibrosis", "dose": "60 mg once daily", "setting": "eye swelling, grade 3", "patients with TEAE [%]": 0}
{"technique": "phase 2a trial", "species": "patients with idiopathic pulmonary fibrosis", "dose": "30 mg once daily", "setting": "free thyroxine decreased, grade 4", "patients with TEAE [%]": 0}
{"technique": "phase 2a trial", "species": "patients with idiopathic pulmonary fibrosis", "dose": "30 mg once daily", "setting": "nervous system disorders SOC, grade 2", "patients with TEAE [%]": 0}
{"item": "prostatic calcification", "species": "idiopathic pulmonary fibrosis patients", "dose": "60 mg once daily", "patients with TEAE [%]": 0}
{"technique": "phase 2a trial", "species": "idiopathic pulmonary fibrosis patients", "route": "oral", "dose": "60 mg once daily", "setting": "GLDH increased, grade 4", "patients with TEAE [%]": 0}
{"item": "periorbital oedema", "species": "idiopathic pulmonary fibrosis patients", "dose": "30 mg once daily", "patients with TEAE [%]": 0}
{"technique": "phase 2a trial", "species": "idiopathic pulmonary fibrosis patients", "route": "oral", "dose": "60 mg once daily", "setting": "blood/lymphatic disorders, grade 5", "patients with TEAE [%]": 0}
